{"data": "Measured values collected from several papers", "note": "Several values in a cell are separate wells, animals, samples, runs or records. ± marks the error that the study gave.", "chain of UniProt Q8VEB4 (whole entry, looked up)": "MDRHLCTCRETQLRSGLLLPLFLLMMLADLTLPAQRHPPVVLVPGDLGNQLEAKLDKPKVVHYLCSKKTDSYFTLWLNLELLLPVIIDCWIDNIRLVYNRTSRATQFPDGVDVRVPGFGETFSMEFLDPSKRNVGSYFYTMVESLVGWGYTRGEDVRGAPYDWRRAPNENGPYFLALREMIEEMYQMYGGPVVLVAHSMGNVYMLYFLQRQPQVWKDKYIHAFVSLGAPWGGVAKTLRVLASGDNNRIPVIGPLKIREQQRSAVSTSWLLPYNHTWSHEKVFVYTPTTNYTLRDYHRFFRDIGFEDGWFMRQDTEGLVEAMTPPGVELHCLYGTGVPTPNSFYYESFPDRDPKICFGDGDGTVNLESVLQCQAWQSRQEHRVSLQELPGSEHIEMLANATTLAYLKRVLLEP", "chain of UniProt Q00987 (whole entry, looked up)": "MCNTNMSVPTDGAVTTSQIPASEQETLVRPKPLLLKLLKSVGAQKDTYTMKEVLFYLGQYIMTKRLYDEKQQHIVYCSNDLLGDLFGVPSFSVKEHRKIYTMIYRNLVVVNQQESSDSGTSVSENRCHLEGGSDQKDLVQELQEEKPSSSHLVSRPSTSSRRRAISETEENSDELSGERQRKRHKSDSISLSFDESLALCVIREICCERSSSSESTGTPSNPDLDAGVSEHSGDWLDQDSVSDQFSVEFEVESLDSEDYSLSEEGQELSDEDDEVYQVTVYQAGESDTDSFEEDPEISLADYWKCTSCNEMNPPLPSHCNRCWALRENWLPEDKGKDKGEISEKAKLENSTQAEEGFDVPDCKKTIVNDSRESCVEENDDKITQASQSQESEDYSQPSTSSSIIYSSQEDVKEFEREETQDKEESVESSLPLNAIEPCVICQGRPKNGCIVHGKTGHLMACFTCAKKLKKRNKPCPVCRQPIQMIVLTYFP", "chain of UniProt Q16644 (whole entry, looked up)": "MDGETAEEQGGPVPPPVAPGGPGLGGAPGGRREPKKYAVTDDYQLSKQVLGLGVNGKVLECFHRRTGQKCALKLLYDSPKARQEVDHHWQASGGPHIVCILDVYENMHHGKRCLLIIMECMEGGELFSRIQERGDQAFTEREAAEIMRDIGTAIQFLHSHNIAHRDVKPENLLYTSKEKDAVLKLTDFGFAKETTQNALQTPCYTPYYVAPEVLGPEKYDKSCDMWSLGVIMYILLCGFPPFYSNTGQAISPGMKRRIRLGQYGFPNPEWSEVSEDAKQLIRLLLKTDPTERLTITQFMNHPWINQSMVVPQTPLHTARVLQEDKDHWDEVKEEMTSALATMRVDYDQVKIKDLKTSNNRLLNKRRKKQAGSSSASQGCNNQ", "chain of UniProt Q9UM07 (whole entry, looked up)": "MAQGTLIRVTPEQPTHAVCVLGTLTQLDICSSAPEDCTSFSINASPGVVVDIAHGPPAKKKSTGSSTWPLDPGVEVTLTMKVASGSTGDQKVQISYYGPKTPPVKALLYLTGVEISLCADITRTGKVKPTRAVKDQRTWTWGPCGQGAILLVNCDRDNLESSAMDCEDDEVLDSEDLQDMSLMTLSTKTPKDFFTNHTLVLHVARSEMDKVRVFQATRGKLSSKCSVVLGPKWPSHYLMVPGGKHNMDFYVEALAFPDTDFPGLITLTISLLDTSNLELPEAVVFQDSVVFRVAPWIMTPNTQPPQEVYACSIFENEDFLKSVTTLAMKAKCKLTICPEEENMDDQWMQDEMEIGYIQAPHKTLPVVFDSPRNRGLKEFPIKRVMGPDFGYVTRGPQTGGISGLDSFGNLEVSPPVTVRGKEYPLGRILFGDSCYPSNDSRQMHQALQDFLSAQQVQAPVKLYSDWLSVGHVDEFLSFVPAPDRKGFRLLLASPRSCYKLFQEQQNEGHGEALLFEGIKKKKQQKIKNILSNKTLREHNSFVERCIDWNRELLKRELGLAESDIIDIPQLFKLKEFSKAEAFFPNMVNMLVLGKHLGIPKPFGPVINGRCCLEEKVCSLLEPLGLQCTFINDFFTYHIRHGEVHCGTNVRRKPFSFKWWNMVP", "chain of UniProt P25021 (whole entry, looked up)": "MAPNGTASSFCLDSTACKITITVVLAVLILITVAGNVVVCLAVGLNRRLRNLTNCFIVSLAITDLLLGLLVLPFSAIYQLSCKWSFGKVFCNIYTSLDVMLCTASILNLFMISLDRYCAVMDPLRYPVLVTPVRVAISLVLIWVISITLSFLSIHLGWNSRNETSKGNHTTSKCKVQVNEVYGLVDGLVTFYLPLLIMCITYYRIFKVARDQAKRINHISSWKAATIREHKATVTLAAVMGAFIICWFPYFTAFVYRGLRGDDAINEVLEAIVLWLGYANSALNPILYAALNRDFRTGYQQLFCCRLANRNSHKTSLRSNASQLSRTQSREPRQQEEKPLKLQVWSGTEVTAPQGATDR", "chain of UniProt P08173 (whole entry, looked up)": "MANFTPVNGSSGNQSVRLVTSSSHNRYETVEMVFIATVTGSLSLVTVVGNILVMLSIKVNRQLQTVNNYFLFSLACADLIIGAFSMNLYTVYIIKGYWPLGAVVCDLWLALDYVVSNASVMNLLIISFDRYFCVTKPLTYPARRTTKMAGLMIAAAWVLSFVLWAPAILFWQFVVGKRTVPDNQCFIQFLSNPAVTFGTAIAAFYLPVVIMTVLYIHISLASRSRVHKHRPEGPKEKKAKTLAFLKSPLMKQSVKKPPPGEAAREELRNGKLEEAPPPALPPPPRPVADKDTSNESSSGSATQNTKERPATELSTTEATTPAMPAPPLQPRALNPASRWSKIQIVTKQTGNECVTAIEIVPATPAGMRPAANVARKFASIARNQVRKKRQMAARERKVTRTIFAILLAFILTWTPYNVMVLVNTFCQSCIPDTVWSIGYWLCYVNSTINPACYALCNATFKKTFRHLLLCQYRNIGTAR", "chain of UniProt Q9BVS4 (whole entry, looked up)": "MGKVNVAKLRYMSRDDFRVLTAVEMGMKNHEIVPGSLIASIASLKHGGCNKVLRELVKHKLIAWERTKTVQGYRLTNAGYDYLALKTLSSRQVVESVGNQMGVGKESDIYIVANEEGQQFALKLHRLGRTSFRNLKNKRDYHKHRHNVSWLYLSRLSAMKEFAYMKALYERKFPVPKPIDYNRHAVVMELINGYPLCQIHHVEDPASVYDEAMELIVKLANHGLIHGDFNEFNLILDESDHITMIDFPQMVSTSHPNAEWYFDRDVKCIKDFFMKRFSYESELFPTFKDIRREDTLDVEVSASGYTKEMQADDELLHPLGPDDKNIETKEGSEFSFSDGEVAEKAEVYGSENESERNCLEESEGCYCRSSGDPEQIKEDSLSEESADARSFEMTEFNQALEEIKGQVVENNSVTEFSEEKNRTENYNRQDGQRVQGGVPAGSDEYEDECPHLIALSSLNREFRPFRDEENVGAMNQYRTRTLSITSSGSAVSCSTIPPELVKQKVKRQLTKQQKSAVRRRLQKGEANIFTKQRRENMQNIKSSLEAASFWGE", "chain of UniProt Q6DWJ6 (whole entry, looked up)": "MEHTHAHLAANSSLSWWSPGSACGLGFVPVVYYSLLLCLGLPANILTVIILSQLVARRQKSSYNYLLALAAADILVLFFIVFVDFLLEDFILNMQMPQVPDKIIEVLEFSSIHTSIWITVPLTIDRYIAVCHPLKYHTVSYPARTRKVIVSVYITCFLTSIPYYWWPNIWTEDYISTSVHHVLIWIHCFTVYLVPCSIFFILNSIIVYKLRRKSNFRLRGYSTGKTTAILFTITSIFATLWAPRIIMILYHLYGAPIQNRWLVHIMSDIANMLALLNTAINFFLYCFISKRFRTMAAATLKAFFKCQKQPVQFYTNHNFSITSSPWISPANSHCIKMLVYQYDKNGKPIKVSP", "chain of UniProt P0A988 (whole entry, unmodified, looked up)": "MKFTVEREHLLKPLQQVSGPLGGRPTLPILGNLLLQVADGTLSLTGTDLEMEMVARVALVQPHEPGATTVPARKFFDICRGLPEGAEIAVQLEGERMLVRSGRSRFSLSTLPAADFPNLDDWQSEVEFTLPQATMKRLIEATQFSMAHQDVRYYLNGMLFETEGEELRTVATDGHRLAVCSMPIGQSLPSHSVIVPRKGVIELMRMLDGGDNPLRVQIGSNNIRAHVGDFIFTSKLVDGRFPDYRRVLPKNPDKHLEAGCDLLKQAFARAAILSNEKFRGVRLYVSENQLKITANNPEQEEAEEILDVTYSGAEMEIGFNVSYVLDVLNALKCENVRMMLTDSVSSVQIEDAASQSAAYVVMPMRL", "chain of UniProt Q704Y3 (whole entry, unmodified, looked up)": "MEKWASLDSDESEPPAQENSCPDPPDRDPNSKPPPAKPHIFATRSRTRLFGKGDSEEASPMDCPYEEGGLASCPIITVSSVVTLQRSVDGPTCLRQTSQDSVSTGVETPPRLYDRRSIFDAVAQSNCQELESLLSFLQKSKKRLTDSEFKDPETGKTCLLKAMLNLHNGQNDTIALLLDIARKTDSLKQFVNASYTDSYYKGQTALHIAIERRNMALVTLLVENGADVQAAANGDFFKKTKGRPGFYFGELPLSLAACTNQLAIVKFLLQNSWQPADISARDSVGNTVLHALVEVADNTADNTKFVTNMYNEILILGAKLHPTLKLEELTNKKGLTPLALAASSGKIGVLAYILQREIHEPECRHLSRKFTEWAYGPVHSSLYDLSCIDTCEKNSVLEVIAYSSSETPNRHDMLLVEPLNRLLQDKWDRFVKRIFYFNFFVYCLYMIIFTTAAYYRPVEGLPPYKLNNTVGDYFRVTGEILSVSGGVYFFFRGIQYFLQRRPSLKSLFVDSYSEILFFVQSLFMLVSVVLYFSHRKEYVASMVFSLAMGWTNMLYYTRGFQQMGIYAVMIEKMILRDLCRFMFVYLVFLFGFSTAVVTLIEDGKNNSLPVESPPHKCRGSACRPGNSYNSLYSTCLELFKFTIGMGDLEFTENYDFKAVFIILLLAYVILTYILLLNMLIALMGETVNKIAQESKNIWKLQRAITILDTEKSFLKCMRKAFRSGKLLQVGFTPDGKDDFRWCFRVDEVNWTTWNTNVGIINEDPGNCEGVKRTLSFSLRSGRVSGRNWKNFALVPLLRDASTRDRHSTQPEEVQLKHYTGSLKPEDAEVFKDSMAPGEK"}
{"SMILES": "CCC1(CC)C(=O)N(c2cccc(CN3CCN(Cc4ccc(Br)cc4)CC3)c2)C1=O", "tested on": "Dipeptidyl peptidase 8 (Homo sapiens, UniProt Q6V1X1)", "assay": "inhibitor", "conditions": "added: GP-AMC substrate", "how to read": "relative to: Ki' DPP9 over Ki' DPP8", "endpoint": "selectivity ratio", "result": 7}
{"SMILES": "CS(C)(=O)=Nc1ccc(-c2ccc(-c3nc4cc(O[C@@H]5CO[C@H]6[C@@H]5OC[C@H]6O)[nH]c4cc3F)cc2)cc1", "tested on": "Tyrosine-protein kinase Tec, phosphorylated (TEC, Homo sapiens, UniProt P42680)", "assay": "enzyme activity, inhibitor", "conditions": "10 µM", "endpoint": "inhibition", "result": "22%"}
{"SMILES": "CCOC(=O)[C@@H]1Cc2c(cc([N+](=O)[O-])cc2[N+](=O)[O-])[C@H](O)[C@]12C(=O)Nc1ccc(Br)cc12", "tested on": "Serine/threonine-protein kinase DCLK1 (DCLK1, Homo sapiens, UniProt O15075)", "assay": "KINOMEscan", "conditions": "100 nM", "how to read": "relative to: DMSO control", "endpoint": "remaining binding", "result": "46%"}
{"SMILES": "CC[C@H](C)[C@H](NC(=O)[C@H](CO)NC(=O)[C@H](Cc1ccc(O)cc1)NC(=O)[C@H](Cc1ccc(O)cc1)NC(=O)[C@H](CC(N)=O)NC(=O)CNC(=O)[C@H](CO)NC(=O)[C@H](Cc1ccc(O)cc1)NC(=O)[C@H](CO)NC(=O)[C@H](CO)NC(=O)[C@H](CC(N)=O)NC(=O)COCCOCCNC(=O)CN1CCN(CC(=O)O)CCN(CC(=O)O)CCN(CC(=O)O)CC1)C(=O)N[C@@H](CC(C)C)C(N)=O [copper-64 labelled]", "assay": "dynamic PET", "test system": "mouse, tamoxifen-induced PDAC, tumor", "conditions": "intravenous, 0.1 µg/mouse, 1.6 min", "endpoint": "tumour uptake", "result": "14.9 %ID/mL"}
{"SMILES": "N[C@H](C(=O)N1CCCC1)C1CCN(c2nccc3c(-c4ncc(Cl)cc4Cl)cccc23)CC1", "tested on": "Protein-arginine deiminase type-4 (PADI4, Homo sapiens, UniProt Q9UM07)", "assay": "enzyme activity", "conditions": "0.01573 µM, high-affinity site, added: Ca2+ 1.5 mM", "endpoint": "kcat", "result": "2.07 s⁻¹ and 2.09 s⁻¹"}
{"SMILES": "CC(=O)N[C@@H](CCC(N)=O)C(=O)N[C@@H](CC1CCCCC1)C(=O)N[C@@H](CNC(=O)CCl)C(=O)N[C@@H](CC(C)C)C(=O)N[C@@H](Cc1ccccc1)C(=O)O", "tested on": "Beta sliding clamp (Escherichia coli, UniProt P0A988)", "assay": "binding, isothermal titration calorimetry", "conditions": "25 °C", "endpoint": "ΔG", "result": "-9.2 kcal/mol"}
{"SMILES": "CC(C)CC(O)(CC(C)C)c1cn(C(=O)N2CCCC2)nn1", "tested on": "Lysosomal phospholipase A and acyltransferase (Pla2g15, Mus musculus, UniProt Q8VEB4)", "assay": "probe labelling, inhibitor, measured: Lypla3", "test system": "mouse, brain", "conditions": "i.p., 0.8 mg/kg, 4 h, single peptide", "how to read": "relative to: treated over vehicle mice, lower = stronger inhibition", "endpoint": "activity ratio-of-ratios", "result": "1.92 and 1.36 and 2 and 1.73 and 1.99"}
{"SMILES": "CC(C)OC(=O)OCOC(=O)C(CCC(=O)O)CP(=O)(OCOC(=O)OC(C)C)OCOC(=O)OC(C)C (stereo not shown)", "tested on": "Folh1 (Mus musculus, UniProt O35409)", "assay": "radioligand uptake, PET", "test system": "mouse bearing 22Rv1 tumour, salivary gland", "conditions": "intravenous, 0.25 mg/kg, 15 min before, imaging at 60 min, added: [18F]F-DCFPyL", "how to read": "relative to: vehicle", "endpoint": "uptake reduction", "result": "87%"}
{"SMILES": "COc1ccccc1-c1n[nH]c2nc(NC3CCN(C(=O)Cc4ccc(F)cc4F)CC3)ncc12", "assay": "bead binding, competition bead pull-down, measured: LINJ.10.0330", "test system": "Leishmania donovani extract", "conditions": "10 µM", "how to read": "relative to: vehicle", "endpoint": "relative abundance", "result": 1.09}
{"SMILES": "Cc1cc(-c2ccc3ccccc3c2)nnc1NCCN1CCN(C)CC1", "tested on": "Histamine H2 receptor (HRH2, Homo sapiens, UniProt P25021)", "assay": "antagonist", "conditions": "10000 nM", "how to read": "relative to: control", "endpoint": "activity", "result": "0%"}
{"SMILES": "CC(C)[C@H]1NC(=O)C[C@H]2/C=C/CCSSC[C@@H](NC1=O)C(=O)N[C@H](Cc1cccc3ccccc13)C(=O)NCC(=O)O2", "tested on": "Mitogen-activated protein kinase kinase kinase 4 (MAP3K4, Homo sapiens, UniProt Q9Y6R4)", "conditions": "10 µM", "endpoint": "inhibition", "result": "-1.2%"}
{"SMILES": "COCC1CCCCN1C(=O)n1cc(C(O)(c2ccccc2)c2ccccc2)nn1 (stereo not shown)", "tested on": "Platelet-activating factor acetylhydrolase IB subunit alpha1 (Pafah1b3, Mus musculus, UniProt Q61205)", "assay": "probe labelling, inhibitor, competitive ABPP-SILAC, measured: Pafah1b3", "test system": "mouse T cells", "conditions": "concentration not given, 4 h, protein level", "how to read": "relative to: treated over DMSO cells, lower = stronger inhibition", "endpoint": "SILAC activity ratio", "result": 1.46}
{"SMILES": "Cc1cc(Oc2nc(N3CC[C@@H](c4ccncc4)C3)ncc2F)[nH]n1", "tested on": "pancreas cancer cell lines", "assay": "cell proliferation", "conditions": "average over lines", "endpoint": "IC50", "result": "52.5 µM"}
{"SMILES": "COc1ccccc1-c1n[nH]c2nc(N[C@H]3CC[C@H](NS(=O)(=O)CC(C)C)CC3)ncc12", "assay": "bead binding, competition bead pull-down, measured: LINJ.33.2190", "test system": "Leishmania donovani extract", "conditions": "10 µM", "how to read": "relative to: vehicle", "endpoint": "relative abundance", "result": 0.71}
{"SMILES": "O=C1NC(=O)c2c1c1cc(F)c[n+]3c1c1c2c2cc(O)ccc2[n]1[Ru-4]312([N]=C=S)[S+]3CC[S+]1CC[S+]2CC3 (stereo not shown)", "tested on": "Insulin-like growth factor 1 receptor (IGF1R, Homo sapiens, UniProt P08069)", "assay": "enzyme activity", "conditions": "100 nM, human enzyme, added: 10 µM ATP", "how to read": "relative to: untreated", "endpoint": "remaining activity", "result": "82%"}
{"SMILES": "C[C@H](NCc1ccc(-c2ccc(C(F)(F)F)cc2)cc1)C(N)=O", "tested on": "Muscarinic acetylcholine receptor M4 (CHRM4, Homo sapiens, UniProt P08173)", "assay": "radioligand binding", "conditions": "1 µM, added: [3H]N-methylscopolamine 0.80 nM", "endpoint": "inhibition of binding", "result": "3%"}
{"SMILES": "CC[C@H](C)[C@H](NC(=O)[C@H](CCCNC(=N)N)NC(=O)[C@H](CCCNC(=N)N)NC(=O)[C@H](CC(C)C)NC(=O)[C@H](Cc1ccccc1)NC(=O)CNC(=O)CNC(=O)[C@@H](N)Cc1ccc(O)cc1)C(=O)N[C@@H](CCCNC(=N)N)C(=O)N1CCC[C@H]1C(=O)N[C@@H](CCCCN)C(=O)N[C@@H](CC(C)C)C(=O)N[C@@H](CCCCN)C(=O)O", "tested on": "Probable G-protein coupled receptor 139 (GPR139, Homo sapiens, UniProt Q6DWJ6)", "assay": "Gαq activation, agonist, BRET", "test system": "HEK293T/17", "conditions": "40 µM", "endpoint": "Emax", "result": "76.7%"}
{"SMILES": "CC(C)(C)C(=O)OCOP(=O)(OCOC(=O)C(C)(C)C)C1CCCN(O)C1=O (stereo not shown)", "tested on": "SNB-19", "endpoint": "log LC50", "result": "> -4 log M"}
{"SMILES": "CN(C)[C@H]1C[C@@]23CC[C@@]4(O2)C(=CC[C@]2(C)[C@@H](c5ccc6ccncc6c5)CC[C@H]24)C=C3[C@@H](O)[C@@H]1O", "tested on": "Dual specificity mitogen-activated protein kinase kinase 4 (MAP2K4, Homo sapiens, UniProt P45985)", "assay": "ATP probe labelling, inhibitor, KiNativ profiling", "conditions": "1 µM", "endpoint": "inhibition", "result": "9.5%"}
{"SMILES": "CCCCC/C=C\\C/C=C\\C/C=C\\C/C=C\\CCCC(=O)NCCc1ccc(O)c(O)c1", "tested on": "Transient receptor potential cation channel subfamily V member 1 (Trpv1, Mus musculus, UniProt Q704Y3, T551S)", "assay": "ion current, agonist, whole-cell patch clamp", "conditions": "T551S", "how to read": "relative to: 3 mM 2-APB", "endpoint": "maximal open probability", "result": "0.71 ± 0.15"}
{"SMILES": "Nc1ccc(/C=C/C(=O)N2CCc3c(oc4c(-c5ccc(F)cc5)cc(-c5ccc(C(=O)N6CCC(F)(F)CC6)cn5)cc34)C2)cn1", "tested on": "Serine/threonine-protein kinase RIO2 (RIOK2, Homo sapiens, UniProt Q9BVS4)", "assay": "binding, competition with immobilised ligand", "conditions": "1 µM", "endpoint": "remaining binding", "result": "93%"}
{"SMILES": "Cc1nc2cccc(OCC(C)(C)C(=O)NC(C)C)c2c(N)c1C(=O)[O-].[Na+]", "tested on": "Salmonella typhimurium", "test system": "TA1537", "conditions": "2.0 mg per plate, without S9, plate incorporation", "endpoint": "revertant colonies per plate", "result": "11 ± 4"}
{"SMILES": "[CH3][Ti+2][O]C(=O)c1ccc([S][Au][PH](c2ccccc2)(c2ccccc2)c2ccccc2)cc1.c1cc[cH-]c1.c1cc[cH-]c1", "tested on": "MAP kinase-activated protein kinase 3 (MAPKAPK3, Homo sapiens, UniProt Q16644)", "assay": "kinase activity, HotSpot radiometric", "conditions": "1 µM, added: ATP 10 µM", "how to read": "relative to: vehicle", "endpoint": "remaining activity", "result": "42% and 41.5%"}
{"SMILES": "O=C1NC2(CC2)COc2ncc(F)cc2[C@H]2COCCN2c2ccn3ncc1c3n2", "test system": "Sprague-Dawley rat, male, serum", "conditions": "oral, 10 mg/kg/day, end of treatment, 4-week subacute toxicity", "endpoint": "serum total protein", "result": "57.7 ± 3.5 g/L"}
{"SMILES": "O=c1[nH]c2ccccc2c(=O)o1", "tested on": "Rhomboid protease AarA (Providencia stuartii, UniProt P46116)", "how to read": "relative to: IC50 chymotrypsin over IC50 AarA", "endpoint": "selectivity ratio", "result": 0.03}
{"SMILES": "C#CCCCCOc1ccc2c(c1)CCCN2C(=O)CCl", "tested on": "High affinity cAMP-specific and IBMX-insensitive 3',5'-cyclic phosphodiesterase 8A (PDE8A, Homo sapiens, UniProt O60658)", "assay": "mass spectrometry profiling", "test system": "H460 cell lysate", "conditions": "100 µM over 10 µM, UniProt O60658", "how to read": "relative to: high over low concentration", "endpoint": "reactivity ratio", "result": 1.52}
{"SMILES": "CC[C@H](C)[C@@H]1NC(=O)[C@H](CC(C)C)NC(=O)CNC(=O)[C@H](CCCNC(=N)N)NC(=O)[C@H](Cc2c[nH]c3ccccc23)NC(=O)[C@H](CCSC)NC(=O)[C@H](CO)NC(=O)[C@H](CCC(=O)O)NC(=O)[C@H](Cc2ccccc2)NC(=O)[C@H](CC(=O)O)NC(=O)[C@H]([C@@H](C)O)NC(=O)CNC(=O)[C@H](CCC(=O)O)NC(=O)[C@H]([C@@H](C)O)NC(=O)CNC(=O)[C@H](CC(=O)O)NC1=O", "tested on": "E3 ubiquitin-protein ligase Mdm2 (MDM2, Homo sapiens, UniProt Q00987)", "assay": "MDM2-ligand binding, inhibitor, AlphaLISA competition", "conditions": "25 µM, added: GST-tagged MDM2 ligand", "how to read": "lower = stronger inhibition", "endpoint": "AlphaLISA signal", "result": "1340 a.u. and 1080 a.u. and 1250 a.u."}
{"SMILES": "Cc1cc(C(=O)Nc2nc3cccc(C)c3n2[C@H]2CCCCN(C(=O)/C=C/CN(C)C)C2)ccn1", "tested on": "Trypanosoma brucei brucei", "test system": "2T1 wild type", "conditions": "0.09259 µM", "endpoint": "survival", "result": "-0.1% and -0.09% and 0.14% and 0.12% and 0.65% and 0.34%"}
